Earlier results, collected from citations in different studies.
Lines come from different studies, so protocols differ. Numbers after ± are the reported error.
CNR2: Cannabinoid receptor 2 (CNR2, Homo sapiens, UniProt P34972)
UniProt P34972, sequence (whole entry, looked up): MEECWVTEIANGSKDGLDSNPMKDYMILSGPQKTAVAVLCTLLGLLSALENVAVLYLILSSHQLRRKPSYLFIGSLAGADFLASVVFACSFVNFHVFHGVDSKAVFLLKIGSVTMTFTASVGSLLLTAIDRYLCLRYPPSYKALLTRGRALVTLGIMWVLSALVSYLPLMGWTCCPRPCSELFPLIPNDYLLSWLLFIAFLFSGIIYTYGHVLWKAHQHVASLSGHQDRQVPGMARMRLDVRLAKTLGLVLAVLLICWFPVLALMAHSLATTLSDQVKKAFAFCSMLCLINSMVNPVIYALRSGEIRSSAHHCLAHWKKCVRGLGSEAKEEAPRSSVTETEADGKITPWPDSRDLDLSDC
Slc6a2: Transporter (Slc6a2, Rattus norvegicus, UniProt Q63380)
UniProt P63138, sequence (whole entry, looked up): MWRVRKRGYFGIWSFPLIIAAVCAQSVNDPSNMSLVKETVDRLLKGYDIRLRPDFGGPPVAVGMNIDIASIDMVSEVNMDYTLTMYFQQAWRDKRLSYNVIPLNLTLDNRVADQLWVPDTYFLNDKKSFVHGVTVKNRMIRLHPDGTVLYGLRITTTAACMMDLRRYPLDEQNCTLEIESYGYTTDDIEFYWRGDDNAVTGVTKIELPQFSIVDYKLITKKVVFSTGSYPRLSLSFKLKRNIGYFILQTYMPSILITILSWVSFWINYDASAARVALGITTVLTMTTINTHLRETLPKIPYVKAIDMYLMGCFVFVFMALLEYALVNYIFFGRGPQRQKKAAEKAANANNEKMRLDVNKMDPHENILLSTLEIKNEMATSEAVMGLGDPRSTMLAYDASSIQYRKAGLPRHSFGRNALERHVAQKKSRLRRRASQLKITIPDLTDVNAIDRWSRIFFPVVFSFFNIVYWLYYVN
UniProt P18508, sequence (whole entry, looked up): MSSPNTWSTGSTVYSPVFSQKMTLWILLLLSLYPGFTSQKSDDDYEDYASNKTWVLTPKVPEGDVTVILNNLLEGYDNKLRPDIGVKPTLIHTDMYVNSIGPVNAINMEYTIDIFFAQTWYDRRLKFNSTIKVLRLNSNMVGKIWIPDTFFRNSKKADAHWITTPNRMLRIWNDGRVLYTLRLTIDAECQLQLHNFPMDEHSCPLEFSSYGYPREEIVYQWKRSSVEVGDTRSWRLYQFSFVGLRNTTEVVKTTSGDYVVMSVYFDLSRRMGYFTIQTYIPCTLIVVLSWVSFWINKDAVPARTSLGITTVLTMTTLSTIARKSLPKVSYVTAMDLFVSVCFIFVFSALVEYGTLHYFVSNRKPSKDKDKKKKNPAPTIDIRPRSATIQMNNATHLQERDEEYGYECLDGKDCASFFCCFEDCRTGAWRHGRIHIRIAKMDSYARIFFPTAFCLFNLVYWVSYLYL
UniProt P62813, sequence (whole entry, looked up): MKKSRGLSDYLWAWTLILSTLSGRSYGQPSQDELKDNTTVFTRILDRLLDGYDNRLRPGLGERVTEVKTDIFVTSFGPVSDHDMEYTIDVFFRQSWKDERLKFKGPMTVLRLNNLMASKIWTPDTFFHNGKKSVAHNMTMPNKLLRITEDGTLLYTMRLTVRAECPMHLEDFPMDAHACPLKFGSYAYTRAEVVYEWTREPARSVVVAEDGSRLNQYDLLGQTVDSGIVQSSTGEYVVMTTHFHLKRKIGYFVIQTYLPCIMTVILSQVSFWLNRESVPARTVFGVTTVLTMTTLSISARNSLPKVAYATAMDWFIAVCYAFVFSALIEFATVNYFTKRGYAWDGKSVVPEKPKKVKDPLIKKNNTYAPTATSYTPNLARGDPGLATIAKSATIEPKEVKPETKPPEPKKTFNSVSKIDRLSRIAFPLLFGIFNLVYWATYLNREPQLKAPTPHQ
UniProt P41143, sequence (whole entry, looked up): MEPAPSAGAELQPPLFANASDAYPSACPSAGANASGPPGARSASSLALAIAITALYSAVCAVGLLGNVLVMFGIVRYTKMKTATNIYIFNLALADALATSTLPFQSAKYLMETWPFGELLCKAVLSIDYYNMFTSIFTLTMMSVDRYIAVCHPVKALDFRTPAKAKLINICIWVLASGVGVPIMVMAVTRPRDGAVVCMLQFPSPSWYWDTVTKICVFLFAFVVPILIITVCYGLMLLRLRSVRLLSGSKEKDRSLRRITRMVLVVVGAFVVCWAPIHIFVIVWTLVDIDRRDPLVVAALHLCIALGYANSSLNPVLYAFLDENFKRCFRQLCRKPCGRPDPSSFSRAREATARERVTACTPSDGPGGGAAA
UniProt Q01959, sequence (whole entry, looked up): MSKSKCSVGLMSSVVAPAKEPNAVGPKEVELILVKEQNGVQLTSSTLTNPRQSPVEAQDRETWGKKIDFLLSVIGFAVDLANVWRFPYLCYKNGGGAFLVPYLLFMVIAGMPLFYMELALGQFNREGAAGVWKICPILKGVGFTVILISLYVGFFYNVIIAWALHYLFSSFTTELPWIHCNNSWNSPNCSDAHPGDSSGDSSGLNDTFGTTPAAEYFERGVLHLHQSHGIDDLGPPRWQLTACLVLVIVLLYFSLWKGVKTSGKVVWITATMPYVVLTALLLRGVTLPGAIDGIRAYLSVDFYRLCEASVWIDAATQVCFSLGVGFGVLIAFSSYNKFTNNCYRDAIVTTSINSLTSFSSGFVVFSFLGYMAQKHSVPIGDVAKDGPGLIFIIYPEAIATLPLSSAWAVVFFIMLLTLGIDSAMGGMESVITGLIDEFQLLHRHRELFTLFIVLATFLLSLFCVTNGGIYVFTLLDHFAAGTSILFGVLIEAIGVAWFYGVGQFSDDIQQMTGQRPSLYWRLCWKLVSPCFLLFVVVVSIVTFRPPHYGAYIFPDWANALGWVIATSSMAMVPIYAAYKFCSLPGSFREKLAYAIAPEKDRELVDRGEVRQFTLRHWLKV
UniProt P08684, sequence (whole entry, looked up): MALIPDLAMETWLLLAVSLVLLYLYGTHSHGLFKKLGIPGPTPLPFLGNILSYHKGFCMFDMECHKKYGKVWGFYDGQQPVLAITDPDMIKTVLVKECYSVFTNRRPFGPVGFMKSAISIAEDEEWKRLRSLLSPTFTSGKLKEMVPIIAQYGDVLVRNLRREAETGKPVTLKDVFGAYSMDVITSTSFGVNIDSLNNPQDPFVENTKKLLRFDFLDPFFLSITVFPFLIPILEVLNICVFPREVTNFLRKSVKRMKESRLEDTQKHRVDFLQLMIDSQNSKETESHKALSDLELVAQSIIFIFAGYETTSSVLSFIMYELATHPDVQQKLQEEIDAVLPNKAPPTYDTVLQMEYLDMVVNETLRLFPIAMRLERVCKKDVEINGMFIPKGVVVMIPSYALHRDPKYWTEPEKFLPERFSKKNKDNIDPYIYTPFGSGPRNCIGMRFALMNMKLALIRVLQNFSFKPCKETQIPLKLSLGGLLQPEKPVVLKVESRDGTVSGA

Compound = C[C@]12CCC(=O)CC1=CC[C@@H]1[C@@H]2CC[C@]2(C)C(=O)CC[C@@H]12; target = ketosteroid isomerase wild-type; test = substrate; conditions = pH 7.0, 3.3 % methanol; quantity = Km; result = 49.9 ± 1.3 µM
Compound = C=CCN(CC=C)CCc1c[nH]c2ccc(Br)cc12; target = Sodium-dependent dopamine transporter (SLC6A3, Homo sapiens, UniProt Q01959); quantity = Ki; result = 2460 nM
Compound = CN1C(=O)CN=C(c2ccccc2)c2cc(Cl)ccc21; target = GABAA receptor alpha2 vs alpha1; test = potentiation of GABA current, positive allosteric modulator; conditions = with: GABA at EC3; scale = reference: alpha2 over alpha1; quantity = selectivity ratio; result = 1.47
Compound = C=CCN(CC=C)CCc1c[nH]c2ccccc12; target = Delta-type opioid receptor (OPRD1, Homo sapiens, UniProt P41143); test = binding; conditions = with: [3H]DADLE; quantity = Ki; result = > 10000 nM
Compound = C[C@]12CC[C@H]3[C@@H](CCC4=CC(=O)CC[C@@]43C)[C@@H]1CC[C@@H]2O; target = Cytochrome P450 3A4 (CYP3A4, Homo sapiens, UniProt P08684); test = substrate; quantity = Km; result = 24 µM
Compound = CCCCCCC(C)(C)c1ccc([C@@H]2C[C@H](O)CC[C@H]2CCCO)c(O)c1; target = CNR2; conditions = concentration not given, F197V mutant; scale = reference: wild type; quantity = binding affinity change; result = no effect
Compound = N[C@]1(c2ccccc2Cl)CCC[C@H](O)C1=O; target = muscarinic receptors; test = binding, competitive binding screen; conditions = concentration not given; quantity = activity; result = inactive
Compound = CCCC(C(=O)c1ccc2c(c1)OCO2)N1CCCC1 (stereo not shown); target = Slc6a2; test = transporter-mediated release, substrate; test system = rat brain synaptosomes; quantity = EC50; result = inactive
Compound = CCN(CC)CCN1C(=O)CN=C(c2ccccc2F)c2cc(Cl)ccc21; target = GABA-A receptor; alpha-1/beta-2/gamma-2 (Rattus norvegicus, UniProt P18508+P62813+P63138); test = GABA-evoked current, positive modulator; conditions = wild-type receptor, unit not given; scale = reference: GABA current alone; quantity = maximal potentiation; result = 2.6
Compound = CCCCCCC(C)(C)c1cc(O)c2c(c1)OC(C)(C)[C@@H]1CC=C(CO)C[C@@H]21; target = CNR2; conditions = concentration not given, F197V mutant; scale = reference: wild type; quantity = binding affinity change; result = no effect
Compound = COC(=O)[C@H]1[C@@H](OC(=O)c2ccccc2)C[C@@H]2CC[C@H]1N2C; target = Slc6a2; test = transporter-mediated release, substrate; test system = rat brain synaptosomes; quantity = EC50; result = inactive
Compound = CCOC(=O)C1(c2ccccc2)CCN(C)CC1; target = carboxylesterase 1 (human liver); test = substrate; quantity = Km; result = 1900 µM
Compound = COC1C2OP(O)(=S)OCC2OC1n1c(Sc2ccc(Cl)cc2)nc2c(N)ncnc21 (stereo not shown); target = PDE1A; test = cyclic nucleotide hydrolysis, substrate or inhibitor, isothermal titration calorimetry; quantity = Km or Ki; result = 380 nM

A few entries again:
Compound = C[C@]12CC[C@H]3[C@@H](CCC4=CC(=O)CC[C@@]43C)[C@@H]1CC[C@@H]2O; target = Cytochrome P450 3A4 (CYP3A4, Homo sapiens, UniProt P08684); test = substrate; quantity = Km; result = 24 µM
